{"data": "Measured values from different studies", "organism": "Trypanosoma cruzi", "note": "± gives the spread as reported."}
{"Structure (SMILES)": "CC(C)(C)c1ccc(OC(=O)/C=C/C#N)cc1", "assay": "parasite growth, resazurin", "setting": "72 h, epimastigote", "IC50": "12.3 µM"}
{"Structure (SMILES)": "CS(=O)(=O)C(CCl)Cn1cncc1[N+](=O)[O-] (stereo not drawn)", "assay": "parasite growth", "setting": "24 h, trypomastigote", "IC50": "903 µM"}
{"Structure (SMILES)": "N#C/C=C/C(=O)Oc1ccc(Br)cc1", "assay": "parasite growth, resazurin", "setting": "72 h, epimastigote", "IC50": "17.5 µM"}
{"Structure (SMILES)": "NC(COc1ccc2ccccc2c1)COc1ccc2ccccc2c1", "assay": "parasite growth", "test system": "L929, Tulahuen β-galactosidase", "setting": "amastigotes and trypomastigotes", "IC50": "inactive"}
{"Structure (SMILES)": "CS(=O)(=O)N(Cc1cnc[nH]1)c1ccc(-c2nc3ccccc3s2)cc1", "assay": "parasite growth, resazurin", "setting": "48 h, epimastigote", "IC50": "5.98 µM"}
{"Structure (SMILES)": "NC(COc1ccccc1)COc1ccccc1", "assay": "parasite growth", "test system": "L929, TULAHUEN", "setting": "intracellular, amastigote", "IC50": "100 µM"}
{"Structure (SMILES)": "CC(=O)OC(CCl)Cn1cncc1[N+](=O)[O-] (stereo not drawn)", "assay": "parasite growth", "setting": "24 h, trypomastigote", "IC50": "> 2000 µM"}
{"Structure (SMILES)": "NNc1nnc(NN)c2ccccc12", "assay": "parasite growth", "setting": "5 days, epimastigote", "IC50": "> 25 µM"}
{"Structure (SMILES)": "NC(COc1cccc(Cl)c1)COc1cccc(Cl)c1", "assay": "parasite growth", "test system": "L929, TULAHUEN", "setting": "intracellular, amastigote", "IC50": "13 µM"}
{"Structure (SMILES)": "C=C1C(=O)O[C@@H]2C[C@H](C)[C@@H]3C[C@H](O[Si](C)(C)C)[C@H](O[Si](C)(C)C)[C@@]3(C)C[C@H]12", "assay": "parasite growth, thymidine uptake", "setting": "epimastigote", "IC50": "13.2 µM"}
{"Structure (SMILES)": "COc1ccc(OC(=O)/C=C/C#N)cc1", "assay": "parasite growth, resazurin", "setting": "72 h, epimastigote", "IC50": "10.2 µM"}
{"Structure (SMILES)": "COc1cc(/C=C/C(=O)N2CCN(c3ccccc3)CC2)ccc1O", "assay": "parasite growth, resazurin", "setting": "24 h, trypomastigote", "IC50": "> 150 µM"}
{"Structure (SMILES)": "C=C1C(=O)O[C@@H]2C[C@H](C)[C@@H]3C[C@H](O)[C@H](O)[C@@]3(C)C[C@H]12", "assay": "parasite growth, thymidine uptake", "setting": "epimastigote", "IC50": "11.2 µM"}
{"Structure (SMILES)": "CC(C)C[C@@H]1NC(=S)NC1=O", "assay": "parasite growth", "test system": "LLC-MK2", "setting": "48 h, intracellular, amastigote", "IC50": "34.1 µg/mL"}
{"Structure (SMILES)": "COc1ccc(Nc2c(C#N)cnc3ccc(Cl)cc23)cc1", "assay": "viability, resazurin", "test system": "trypomastigotes, Y", "setting": "24 h, RPMI medium, together with: 30 µM heme", "IC50": "11.7 ± 4 µM"}
{"Structure (SMILES)": "Cc1cc2[nH]c(C(=O)Nc3ccccc3C)c(CN3CCOCC3)c2s1", "assay": "parasite growth, imaging", "test system": "NIH3T3, TULAHUEN", "setting": "intracellular, amastigote", "IC50": "> 73 µM"}
{"Structure (SMILES)": "C#CCO[C@H]1C[C@H]2[C@@H](C)C[C@H]3OC(=O)C(=C)[C@H]3C[C@]2(C)[C@H]1OCC#C", "assay": "parasite growth, thymidine uptake", "setting": "epimastigote", "IC50": "3.72 µM"}
{"Structure (SMILES)": "COc1cc(O)c(-c2ccc(OC)c3c(O)cc(C)c(-c4cc(-c5c(O)cc(OC)c6c5C[C@@H](C)N[C@@H]6C)c5cc(C)cc(OC)c5c4O)c23)c2c1[C@@H](C)N(C)[C@H](C)C2", "test system": "Tulahuen C4, amastigotes", "IC50": "19.7 µM"}
{"note": "Some of these lines once more:"}
{"Structure (SMILES)": "COc1ccc(Nc2c(C#N)cnc3ccc(Cl)cc23)cc1", "assay": "viability, resazurin", "test system": "trypomastigotes, Y", "setting": "24 h, RPMI medium, together with: 30 µM heme", "IC50": "11.7 ± 4 µM"}
{"Structure (SMILES)": "C=C1C(=O)O[C@@H]2C[C@H](C)[C@@H]3C[C@H](O)[C@H](O)[C@@]3(C)C[C@H]12", "assay": "parasite growth, thymidine uptake", "setting": "epimastigote", "IC50": "11.2 µM"}
